Results of several laboratories.
Each line is one published result; not all experiments were run side by side.
IRF3 S386D/S396D/S398D/S402D/T404D/S405D full length, phosphomimetic: Interferon regulatory factor 3, full length, phosphomimetic (IRF3, Homo sapiens, UniProt Q14653, residues 1-427, S386D/S396D/S398D/S402D/T404D/S405D)
Sequence of UniProt Q14653 (whole entry, unmodified, looked up): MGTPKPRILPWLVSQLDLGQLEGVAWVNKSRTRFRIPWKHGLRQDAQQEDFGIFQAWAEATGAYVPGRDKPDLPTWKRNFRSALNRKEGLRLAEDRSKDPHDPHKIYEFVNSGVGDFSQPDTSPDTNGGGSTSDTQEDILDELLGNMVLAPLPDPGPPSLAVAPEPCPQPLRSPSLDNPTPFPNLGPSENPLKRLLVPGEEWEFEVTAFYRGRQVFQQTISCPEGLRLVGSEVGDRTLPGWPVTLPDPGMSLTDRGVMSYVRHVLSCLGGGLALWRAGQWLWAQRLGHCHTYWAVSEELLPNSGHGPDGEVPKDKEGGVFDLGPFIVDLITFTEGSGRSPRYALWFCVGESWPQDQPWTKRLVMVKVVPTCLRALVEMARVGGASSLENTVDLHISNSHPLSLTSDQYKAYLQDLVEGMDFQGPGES
CTCF: Transcriptional repressor CTCF (CTCF, Homo sapiens, UniProt P49711, residues 1-727, full length assumed)
Sequence of UniProt P49711 (whole entry, looked up): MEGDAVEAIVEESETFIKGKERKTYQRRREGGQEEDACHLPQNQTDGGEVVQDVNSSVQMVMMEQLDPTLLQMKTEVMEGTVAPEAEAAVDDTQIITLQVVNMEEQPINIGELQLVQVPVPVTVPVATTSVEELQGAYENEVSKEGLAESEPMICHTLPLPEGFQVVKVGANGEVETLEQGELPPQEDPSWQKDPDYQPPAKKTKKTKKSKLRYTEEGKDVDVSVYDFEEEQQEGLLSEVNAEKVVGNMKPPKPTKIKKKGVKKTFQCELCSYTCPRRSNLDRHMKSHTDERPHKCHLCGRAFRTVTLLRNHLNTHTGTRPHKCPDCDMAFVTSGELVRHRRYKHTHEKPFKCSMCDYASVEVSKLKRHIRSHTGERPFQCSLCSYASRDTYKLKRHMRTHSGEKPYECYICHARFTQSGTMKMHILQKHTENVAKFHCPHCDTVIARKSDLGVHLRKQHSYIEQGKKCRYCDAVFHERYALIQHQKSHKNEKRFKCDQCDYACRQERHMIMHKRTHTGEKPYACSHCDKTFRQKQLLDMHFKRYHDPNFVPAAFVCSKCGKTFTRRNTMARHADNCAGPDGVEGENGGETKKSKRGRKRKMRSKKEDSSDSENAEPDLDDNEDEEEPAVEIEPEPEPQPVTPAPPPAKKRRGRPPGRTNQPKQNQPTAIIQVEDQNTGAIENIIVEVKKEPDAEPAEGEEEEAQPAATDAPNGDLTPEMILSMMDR

Substance | target | assay | system | conditions | how to read | quantity | value
CCCACGTA | Histone acetyltransferase KAT6A, winged helix 2, GST fusion (KAT6A, Homo sapiens, UniProt Q92794, residues 85-181) | protein binding microarray | double-stranded DNA, one strand shown, in vitro | not given, 8-mer, flanks averaged, mean of 2 arrays, mostly near background | baseline: not given, higher = stronger binding | E-score | -0.246
GCCTAGCACGACGATATCAGTCTCGAAACGTGCTAGGTCTTGATTCGCTTGACGCTGCTG | IRF3 S386D/S396D/S398D/S402D/T404D/S405D full length, phosphomimetic | protein-binding microarray | double-stranded DNA, one strand shown, in vitro | 2540 nM top, 60-bp whole probe, together with: salmon DNA 0.4 mg/ml | baseline: random background probes, higher = stronger binding | fitted relative affinity | 1.48 z-score
GCATTATA | CTCF | protein-binding microarray | double-stranded DNA, one strand shown, in vitro | not given, k-mer, scored over probes, only values ≥0.25 | higher = stronger binding | E-score | 0.315
GCCTAGCACGACGGTTTCGGGTTGCGGGACGTGCTAGTCTTGATTCGCTTGACGCTGCTG | IRF3 S386D/S396D/S398D/S402D/T404D/S405D full length, phosphomimetic | protein-binding microarray | double-stranded DNA, one strand shown, in vitro | 2540 nM top, 60-bp whole probe, together with: salmon DNA 0.4 mg/ml | baseline: random background probes, higher = stronger binding | fitted relative affinity | 4.91 z-score
CATATTTA | CTCF | protein-binding microarray | double-stranded DNA, one strand shown, in vitro | not given, k-mer, scored over probes, only values ≥0.25 | higher = stronger binding | E-score | 0.324
CCGCGACA | Histone acetyltransferase KAT6A, winged helix 1, GST fusion (KAT6A, Homo sapiens, UniProt Q92794, residues 1-85) | protein binding microarray | double-stranded DNA, one strand shown, in vitro | not given, 8-mer, flanks averaged, mean of 2 arrays, mostly near background | baseline: not given, higher = stronger binding | E-score | 0.291
PhoQ, residues 284 288 289 292 302 303 GTAMQF | PhoP, residues 12 14 15 18 19 QYCSL (Escherichia coli, UniProt P23836) | Sort-seq, item: YFP reporter | E. coli | PhoQ-PhoP variant library, together with: 10 µM Mg2+ | baseline: high Mg2+ state, higher = stronger signaling | fold induction | 4.23
CTTGCGCA | CTCF | protein-binding microarray | double-stranded DNA, one strand shown, in vitro | not given, k-mer, scored over probes, only values ≥0.25 | higher = stronger binding | E-score | 0.333

For quick reference, copied from above:
Substance | target | assay | system | conditions | how to read | quantity | value
GCCTAGCACGACGATATCAGTCTCGAAACGTGCTAGGTCTTGATTCGCTTGACGCTGCTG | IRF3 S386D/S396D/S398D/S402D/T404D/S405D full length, phosphomimetic | protein-binding microarray | double-stranded DNA, one strand shown, in vitro | 2540 nM top, 60-bp whole probe, together with: salmon DNA 0.4 mg/ml | baseline: random background probes, higher = stronger binding | fitted relative affinity | 1.48 z-score
